Published values gathered from unrelated publications.
Numbered parts are unrelated; each lists some results of a single study. Substitutions count along the parent as printed.

Block 1
Target: Ras GTPase-activating protein-binding protein 1, full length (G3BP1, Homo sapiens, UniProt Q13283)
UniProt Q13283, sequence (whole entry, looked up): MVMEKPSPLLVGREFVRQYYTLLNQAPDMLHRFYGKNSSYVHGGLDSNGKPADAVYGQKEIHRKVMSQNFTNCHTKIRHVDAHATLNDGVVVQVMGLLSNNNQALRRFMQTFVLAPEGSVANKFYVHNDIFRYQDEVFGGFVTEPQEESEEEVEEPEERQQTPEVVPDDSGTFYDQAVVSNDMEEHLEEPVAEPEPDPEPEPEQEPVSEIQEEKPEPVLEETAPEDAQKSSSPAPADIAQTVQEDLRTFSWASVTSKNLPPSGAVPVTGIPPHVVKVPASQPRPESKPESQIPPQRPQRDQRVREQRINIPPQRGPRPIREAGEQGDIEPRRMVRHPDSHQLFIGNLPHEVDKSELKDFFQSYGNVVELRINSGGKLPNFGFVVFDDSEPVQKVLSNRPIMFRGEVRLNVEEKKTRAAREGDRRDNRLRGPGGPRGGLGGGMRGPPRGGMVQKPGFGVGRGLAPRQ
Technique: RNA Bind-n-Seq
Form: RNA
Medium: in vitro
Concentration: 200 nM
Notes: whole 134-nt RNA, ends assumed
Together with: 150 mM LiCl
Relative to: input library
Direction: higher = stronger binding
Each molecule: 7-deaza-guanosine replaces G
All sequences stand within: GGGAGUUCUACAGUCCGACGAUC … UGGAAUUCUCGGGUGUCAAGG
| Strand | log2 enrichment |
| --- | --- |
| UGGAUUUUCAAGACACGAAUGCUCGGAGUCUGGCAGAAAGGAAGAGAGAAGAGGAGAAGCAGAAGCACUUGGAUAAAAUUUAUCAAGAAA | -1.08 |
| UUUAAACUGAAGCCGCGGCCGAAAACGCCAAGAGAUUGAUGCUGUAGCUGCCCUGAGAUAACCAGGACUGUGGAAUCGGGAAGAGCUCAU | -2.19 |
| UCCUGUGCUACACAUCGUAUGUACCGAAUCGGGGAAAAAGGGGAAAAAGGGGUUUGGGGAAAGUAUUAUGUUACGCCGUUCGGAUCUGCA | -0.141 |
| AAGUCCUGUGCUACACAUCGUAUGUACCGAAUCGGAAAGGUUUUUGGAAAAAAAGGAAAGUAUUAUGUUACGCCGUUCGGAUCUGCACUU | -1.22 |
| UUUCAAAGCCAAAGGGCCUUGUGACGCCCCUCUUGCCCACCUCCCUCCACACCGUGUCCUCCCCUAUAUGACAAUCAAUGUGACCUCUCU | -0.226 |
| UGGUUUGAGUCCAGCCAAUGACACUGGAGCCAAAAAGAAGAAAAAGAAACAAAAAAAGAAGAAAGAAAAAGGCAGUGAGACAGAUUCAGC | 1.02 |
| CAAGUCCUGUGCUACACAUCGUAUGUACCGAAUCGGGAAAGGGUUUGGGUUUGGGAAAGUAUUAUGUUACGCCGUUCGGAUCUGCACUUC | -0.624 |
| GCAGGAAGUAAAAACAAAUGGAAAUGCUUCGGAUAGUGGCAGGGGUGGGGGUUGCUAAGAAAAGGGUGGGAUGGGAGUGGGUAAAGAGUU | 0.285 |
| AAGUCCUGUGCUACACAUCGUAUGUACCGAAUCGGGGAAAGGGGUUUGGGGAGGGGAAAGUAUUAUGUUACGCCGUUCGGAUCUGCACUU | -0.255 |
| GCAGGAAGUAAAAACAAAUGGAAAUGCUUCGGAUAGUGGCAGGGGUGGGGGUUGCUAAGGAAAGGGUGGGAUAAAAGUGGGUAAAGAGUU | 0.3 |
| CCUGUGCUACACAUCGUAUGUACCGAAUCGGGGUUUUUUUGGGGUUUUUUUGGGGAGGGGAAAGUAUUAUGUUACGCCGUUCGGAUCUGC | 1.13 |

Block 2
Target: RNA binding protein fox-1 homolog 2, RRM domain, GST-SBP tag (RBFOX2, Homo sapiens, UniProt O43251-10, residues 100-194)
Technique: RNA Bind-n-Seq
Form: RNA
Medium: in vitro
Concentration: 365 nM
Notes: natural RNA segment, single round, ends assumed
Relative to: no-protein control
Direction: higher = stronger binding
All sequences stand within: GGGAGUUCUACAGUCCGACGAUC … UGGAAUUCUCGGGUGCCAA
Residues (chain): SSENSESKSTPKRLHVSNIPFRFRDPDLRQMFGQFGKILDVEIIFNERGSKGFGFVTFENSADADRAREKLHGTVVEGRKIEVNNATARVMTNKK
| Strand | RBNS enrichment (R) |
| --- | --- |
| CUCCUGUAACCAUGCAAGCCUGUAGUUGAGUGAUGACCAUACAUAUGGACAGGGUCCCCUCCUGCUGUCCCUCCCUGCUCACACUUGCUCAGAUGCUGCAGUGCAGGGGC | 1.11 |
| AUUUGACUUUGUAUGUCAGUUCCCUGGUUUUUUUGAUAUUGCAUCAUAGGACCUCUGGCAUUUUAGAAUUACUAGCUGAAAAAUUGUAAUGUACCAACAGAAAUAUUAUU | 0.803 |
| CUUUCAAAAUUCUUAAAUCUUCUGUUCCUCCUUUUUCCAAGGGAAGAGGGCAAAAAGUGGCCUGGGCUCUGUUGGUGUGCGUGUUCCGUGGCGGAGAGAAGAAAAUGGGA | 0.811 |
| UUUUUUCCCAUAACACCCACAUGGAUUUGUGAAGACGUGCUUCUCAGAAGCAAGGACUCAAAAAGCAAAGGUGCACGGCGAGGCCACGAAGCCCACGCCAGCCCGGGGAU | 0.249 |
| CCACUAUCAAAGUUCCAGCUACCUGCAAGGUGAAGGAAGGCAUCCCUUUUGGGGCAUGCACUUUCUUUCCUUUCUCAAAAUAAUGUUAUAUGUGGCCACACUGAUGUUCA | 0.391 |
| GUUUCGGAUUUGCAGUGAUGUGUCUUCCGGUGGCAAUGGACAGGGAAGGAGCACCCAUGUCCACUGGAACGGGAGAACAAGCCUUCGGCAUCUACAGGGUUACUGUUUGC | 0.514 |
| CUCAGCCAAGCUUGUUUCCUGCUCUGAGGCUUGUGGGGUGGGAGCCAGAGUGGAGGUCGGUGAAAUAAGUGAUGCAAUUAGACCCCACCGGCUCCUGCUUCUAAAGAGCG | 5.32 |
| AGCAAAAAGAAUAUCUUCUAAAGAUUUCUUUAUAUAUUUAAAAACCCACAACUAAAAAUGUAUCCACAUAGUAGUGUUCGUUUGUCGAGAGGAUUUCCUGAGACUGGUUU | 0.509 |
| UCAUUGCUUCCUCCCACUUUGUGCUCUGUAAAAGAGCUACAGCUGGCAAGAUGUUUUUUCGGCCCUUCAUCACUGAUUGCAUUUUCCAUACAGAAGAGACAUCAGGGGUG | 0.349 |
| CCCUGGGAACUGGGGACCAACCCACCCCGGCAGCACAGUGCCUUUUUUUCUCCUGCUCUGAGUCAGGUGGGCGUCCCCUCUAGAUCCAGGUCUGGGCAGGGGUCUGAUGG | 0.424 |
| GUUUUGUUUUGAGACAGUGUCUCACUUUGUAGCUGUGGCUAUCCUGGAACUCAAUCAGUAGAUGCCCAGAGAUGAUGUGCCUGCCUCUGCCGUCCAAUGCUGGGAUUGAA | 1.85 |
| GAAUGAACCAGUCAGUGGAAAACUGCUGAGGUGGGACAGCUGGGAGCCAGGGAGCCGAAGCAGUGCUUCAGGGGGUACUGUCACUAAGCCCUCAAGAUACCCUUGUCCCU | 0.609 |

Block 3
Target: Centromere-binding protein 1, full length, N-terminal tag (CBF1, Saccharomyces cerevisiae, UniProt P17106, residues 1-351)
UniProt P17106, sequence (whole entry, looked up): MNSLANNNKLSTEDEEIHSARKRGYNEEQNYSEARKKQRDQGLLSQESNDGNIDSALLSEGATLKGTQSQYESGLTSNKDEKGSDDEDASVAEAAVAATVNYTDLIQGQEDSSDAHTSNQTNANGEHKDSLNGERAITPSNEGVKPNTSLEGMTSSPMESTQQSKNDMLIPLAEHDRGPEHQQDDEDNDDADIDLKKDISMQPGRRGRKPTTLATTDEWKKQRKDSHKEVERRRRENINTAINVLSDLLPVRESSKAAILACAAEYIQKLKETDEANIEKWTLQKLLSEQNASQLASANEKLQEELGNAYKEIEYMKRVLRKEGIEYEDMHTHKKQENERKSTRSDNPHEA
Technique: protein-binding microarray
Form: double-stranded DNA, one strand shown
Medium: in vitro
Concentration: 0.8 µM
Notes: whole 60-bp probe, no competitor
Direction: higher = stronger binding
All sequences stand within: … GTCTTGATTCGCTTGACGCTGCTG
| Strand | fluorescence intensity [a.u.] |
| --- | --- |
| GAAAGCACATATATTAACCACATGAAGGCACTTTAG | 560 |
| CTAATTGTACGTATTCACGTGTGAATTGCTAAATTC | 1940 |
| GAATGATCATGAACTCGTGAGGTTAAATTTCGCTAG | 650 |
| GAAGTGCTTCGTAGTGGTGTGAGGATGTTATAATAG | 519 |
| CTAGGGCTAAAGTCTCATGAAACAGCGTCACTATTC | 506 |
| GAAATATGAATTACTCAGGTGTGAATTTTGCAATAG | 517 |
| CTATATCGAATCTCTCACGATATATATATATATTTC | 1420 |
| CTATTGACTTTGTGCACCACCTTCAAATTTACTTTC | 525 |
| CTATGCCTTATCGTTCATCACATGTTATTTTTTTTC | 3970 |
| CCTAACTACTATAGAAACGTGGGATAGCTTCGTACA | 538 |
| TGTACGAAGCTATTTCGTGTGCTTATAGTAGTTAGG | 487 |
| CTACGTTTACAATATCATCATCAGTATGTGACTTTC | 553 |
| TGTACGAAGCTATTGCCCGTGTATATAGTAGTTAGG | 542 |
| GAACCTTTTTTATATCACGAAAAAAAACGCGACTAG | 625 |
| GAACAACAGGCACGTGGTGGGTGTGCCTGGAGATAG | 8930 |
| CTAAGGCGCTTCCATTCCGTGACACTGAGAGTCTTC | 548 |
| CTAGCTTATCCCCGCCATCACTTCCCCCCGCCCTTC | 511 |
| TGTACGAAGCTATAACATGTGGGTATAGTAGTTAGG | 559 |
| GAAAGGGTTTGTCGTTGCACGTGATCAATGGTTTAG | 17800 |
| GAAGGGTGTAATGATCACGACAGTAAAGTGAGCTAG | 996 |
| CTAAATGAAGTGCATCATGAAATATTCATGACGTTC | 501 |
| CTAAGAGAAGACCCCCACGTGCCCTAAAAATAATTC | 5590 |

Block 4
Target: ABI1, truncated, D143A, DHFR fusion (Arabidopsis thaliana)
Technique: DHFR PCA, deep sequencing
Medium: yeast
Notes: methotrexate growth selection, single substitutions
Together with: (+)-ABA 0 µM
Relative to: wild-type fitted maximum
Direction: higher = stronger binding
Starting sequence: PYL1, truncated, DHFR fusion (Arabidopsis thaliana); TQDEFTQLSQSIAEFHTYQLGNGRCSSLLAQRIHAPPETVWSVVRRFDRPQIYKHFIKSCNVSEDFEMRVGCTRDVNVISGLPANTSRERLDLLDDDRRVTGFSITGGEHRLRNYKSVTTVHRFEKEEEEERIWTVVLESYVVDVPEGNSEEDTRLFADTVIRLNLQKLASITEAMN; partner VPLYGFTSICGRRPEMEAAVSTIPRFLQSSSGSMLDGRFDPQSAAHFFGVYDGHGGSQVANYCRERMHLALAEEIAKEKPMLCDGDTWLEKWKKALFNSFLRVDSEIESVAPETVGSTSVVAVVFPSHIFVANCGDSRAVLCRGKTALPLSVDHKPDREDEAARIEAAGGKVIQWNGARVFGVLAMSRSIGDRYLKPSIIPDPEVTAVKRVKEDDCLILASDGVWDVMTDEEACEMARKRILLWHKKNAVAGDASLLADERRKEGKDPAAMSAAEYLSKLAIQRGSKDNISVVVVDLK
| Change | relative binding score [%] |
| --- | --- |
| S59R | -2.45 |
| E147M | 2.23 |
| T101A | 2.44 |
| F66R | -0.106 |
| V145A | -8.23 |
| R69H | 8.06 |
| H34E | 36.7 |
| D92C | -8.69 |
| R111M | 25.7 |
| E125S | 35.3 |
| L28F | 0.778 |
| E64Y | 0.476 |
| E89S | 1.19 |
| T6I | 40.3 |
| V136C | -3.27 |
| H34F | 20.9 |

Block 5
Target: CCNA1, cyclin fold, Cln2 fusion (human)
Technique: yeast growth competition, sequencing
Medium: yeast
Notes: weak parent motif
Relative to: not given
Direction: higher = stronger binding
Starting sequence: USP37 docking peptide (human); PSAKRSLGFLPQP; partner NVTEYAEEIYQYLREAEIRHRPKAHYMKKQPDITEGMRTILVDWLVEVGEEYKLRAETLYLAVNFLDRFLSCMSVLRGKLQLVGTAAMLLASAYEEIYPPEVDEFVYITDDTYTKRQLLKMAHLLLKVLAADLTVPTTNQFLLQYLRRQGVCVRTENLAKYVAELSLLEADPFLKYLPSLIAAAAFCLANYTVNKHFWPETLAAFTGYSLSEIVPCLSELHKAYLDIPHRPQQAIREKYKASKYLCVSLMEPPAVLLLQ
| Change | normalised enrichment score |
| --- | --- |
| Q12A | 0.412 |
| L10A | 0.115 |
| F9A | -0.186 |
| G8A | 0.229 |
| R5A | 0.158 |
| P1A | -0.156 |

Single results of other studies
| Molecule | target | assay | system | setting | scale | measurement | value |
| --- | --- | --- | --- | --- | --- | --- | --- |
| PhoQ, residues 284 288 289 292 302 303 TLSLKA | PhoP, residues 12 14 15 18 19 IQFRS (Escherichia coli, UniProt P23836) | Sort-seq, item: YFP reporter | E. coli | PhoQ-PhoP variant library, together with: 10 µM Mg2+ | relative to: high Mg2+ state, higher = stronger signaling | fold induction | 1.62 |

Some of these lines once more (block 1):
| Strand | log2 enrichment |
| --- | --- |
| UUUCAAAGCCAAAGGGCCUUGUGACGCCCCUCUUGCCCACCUCCCUCCACACCGUGUCCUCCCCUAUAUGACAAUCAAUGUGACCUCUCU | -0.226 |
| AAGUCCUGUGCUACACAUCGUAUGUACCGAAUCGGAAAGGUUUUUGGAAAAAAAGGAAAGUAUUAUGUUACGCCGUUCGGAUCUGCACUU | -1.22 |
| UGGAUUUUCAAGACACGAAUGCUCGGAGUCUGGCAGAAAGGAAGAGAGAAGAGGAGAAGCAGAAGCACUUGGAUAAAAUUUAUCAAGAAA | -1.08 |
